# Experimental data collected from several papers.
# Lines come from different studies, so protocols differ. Values joined by “and” are separate records of one study, mostly repeats; a detail may differ.
# FLT3: Receptor-type tyrosine-protein kinase FLT3 (FLT3, Homo sapiens, UniProt P36888)
# FLT3 D835Y: Receptor-type tyrosine-protein kinase FLT3 (FLT3, Homo sapiens, UniProt P36888, D835Y)
target,test,setting,scale,endpoint,value,SMILES
FLT3,enzyme activity,1 µM,relative to: DMSO control,remaining activity,48.2%,Nc1ncc(-c2cc(-c3cnn(CC(F)(F)F)c3)ncc2F)nc1C(=O)NC1CNCC(F)C1 (stereo not shown)
FLT3,"enzyme activity, inhibitor",0.1 µM,,inhibition,82.9%,CN1CCN(c2ccc(Nc3ncc(Cl)c(Nc4ccccc4P(C)(C)=O)n3)cc2Br)CC1
"FLT3 (Homo sapiens, UniProt P36888, D835H)","cell-free assay, competition with immobilised ligand",10 µM,,remaining binding,90%,CC(C)=CC1OC(C)(C)C2C=C3C(=O)C(Cl)=CC(O)C3C3C(O)C4OC4C(=O)C132 (stereo not shown)
FLT3 D835Y,"kinase activity, inhibitor, ProQinase kinase profiling",25 µM,relative to: control,remaining activity,98% and 104%,COCC12C(=O)NC3C4(C(OC)CC1O)C1CC5(O)C(OC)C(O)C(OC(C)=O)(C1C5OC(=O)c1ccccc1)C3(O)C(OC)C24 (stereo not shown)
FLT3 D835Y,enzyme activity,"100 nM, human enzyme, with: 10 µM ATP",relative to: untreated,remaining activity,5%,O=C=[N][Ru-4]123([n]4c5ccc(O)cc5c5c6c(c7cc(F)c[n+]1c7c54)C(=O)NC6=O)[S+]1CC[S+]2CC[S+]3CC1 (stereo not shown)
FLT3,"enzyme activity, inhibitor",10 µM,,inhibition,96%,NC(=O)[C@@H](O)C[C@H]1CCc2sc3ncnc(O[C@H]4CC[C@H](N5CCOCC5)CC4)c3c21
FLT3,"enzyme activity, inhibitor",10 µM,,activity vs control,104%,O=C(Cc1ccc(OCc2ccccc2)cc1)NC1(C(=O)O)CCN(C(=O)c2ccc(-c3cccc(Cl)c3)cc2)CC1
FLT3,"enzyme activity, inhibitor, FRET",1 µM,,inhibition,14%,C[C@H]1CN(C(=O)c2cn(-c3ccnc(N)n3)c3cc(C#CC4(O)CCCCC4)ccc23)CCN1
FLT3,,1000 nM,,inhibition,5.6%,COc1cc(OC)c(F)c(/C=C/c2cnc3ccn(S(=O)(=O)c4cn(CCF)cn4)c3n2)c1F
FLT3,"cell-free assay, inhibitor",1 µM,,inhibition,11%,C=CC(=O)N1Cc2nc(-c3cc(-c4cc(Cl)cnc4Cl)c(F)cc3F)n(-c3ccncn3)c2C1
"FLT3 (Homo sapiens, UniProt P36888, F691L/ITD)",cell-free assay,0.1 µM,,remaining signal,0%,Cc1cnc2nc1Nc1cccc(c1)COC/C=C/COCc1cc(ccc1OCCN1CCOCC1)N2
FLT3,"kinase activity, inhibitor",1 µM,relative to: untreated control,remaining activity,98%,COc1c(OCCCN2CCOCC2)ccc2c1N=C(NC(=O)c1cnc(N)nc1)N1CCN=C21
"FLT3 (Homo sapiens, UniProt P36888, K663Q)","binding, competition with immobilised ligand",1 µM,,remaining binding,100%,Nc1ncc2c(n1)-c1c([nH]c3ccc(C4=CCOCC4)cc13)CCC2
FLT3 D835Y,"binding, competition with immobilised ligand",1 µM,,remaining binding,100%,CNC(=O)C1CCN(c2cc(C)c(F)cc2NC(=O)c2ccc(-c3cc(O)ccc3C)c(C)c2)CC1
FLT3,"enzyme activity, inhibitor",1 µM,,inhibition,4%,Cc1cccc(O[C@H]2CCC[C@@H](C(C)CNCc3ccncc3)C2)c1 (relative stereo)
FLT3,"enzyme activity, inhibitor",0.1 µM,,inhibition,15%,C=CC(=O)Nc1cccc(-c2cnc3[nH]cc(C(=O)NC(C)(C)C)c3n2)c1
